Results gathered from unrelated publications.
Numbered parts are unrelated; each lists some results of a single study.

Sample 1 — method: protein-binding microarray; form: double-stranded DNA, one strand shown; matrix: in vitro; concentration: 0.8 µM; setting: whole 60-bp probe, no competitor; reading: higher = stronger binding; all sequences stand within: … GTCTTGATTCGCTTGACGCTGCTG
Target: Centromere-binding protein 1, full length, N-terminal tag (CBF1, Saccharomyces cerevisiae, UniProt P17106, residues 1-351)
Chain of UniProt P17106 (whole entry, looked up): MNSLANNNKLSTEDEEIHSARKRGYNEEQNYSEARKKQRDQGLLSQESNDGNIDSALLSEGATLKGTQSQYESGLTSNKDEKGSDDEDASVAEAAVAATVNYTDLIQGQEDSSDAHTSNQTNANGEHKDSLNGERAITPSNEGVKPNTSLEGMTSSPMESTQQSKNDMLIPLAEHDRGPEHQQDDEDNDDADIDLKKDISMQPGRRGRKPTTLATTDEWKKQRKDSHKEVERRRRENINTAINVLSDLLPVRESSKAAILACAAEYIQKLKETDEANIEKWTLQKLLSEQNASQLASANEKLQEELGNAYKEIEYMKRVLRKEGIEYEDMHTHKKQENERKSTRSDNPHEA
`CTATCGCTATTTCGTGACAACGTTCCAGGACACTTC` gave a fluorescence intensity of 578 a.u.
`CCTAACTACTATATCCACCTGCTATAGCTTCGTACA` has a fluorescence intensity of 540 a.u.
With `CTACCAACATATAAGCGGGTGATGTCTCATTTCTTC` the fluorescence intensity was 527 a.u.
`GAATGTGCGACGATTCATGTGTGTTAGATTGGGTAG` gave a fluorescence intensity of 572 a.u.
The fluorescence intensity of `GAAGCCGTACTTTTACACGTGACCGTAGAGGCTTAG` is reported as 17800 a.u.
For `CTAACAACGCGTTTCTACGTGGTGGGCAGAAGTTTC`, the fluorescence intensity was 543 a.u.
The fluorescence intensity of `GAAATGTTTCAGCATGATGTCGGAGGTAGAAAATAG` is reported as 631 a.u.
The fluorescence intensity of `CCTAACTACTATAAACGCACGCAATAGCTTCGTACA` is reported as 522 a.u.
With `CTATCTAAAATTTTTCAGTCACCTTTAACGAAATTC` the fluorescence intensity was 579 a.u.
For `GAATCCCCCCTCGGGCACATGGAAATTCACTAATAG`, the fluorescence intensity was 547 a.u.
The fluorescence intensity of `CTAAGGATTCCCCGTGACGAAAACAGCCTTCAGTTC` is reported as 1390 a.u.
With `GAAGAATACTAGTATCACGAATACTAGTCAGTATAG` the fluorescence intensity was 520 a.u.
With `TGTACGAAGCTATATCACGATTGTATAGTAGTTAGG` the fluorescence intensity was 528 a.u.
`CCTAACTACTATAGCTACGTGCGATAGCTTCGTACA` has a fluorescence intensity of 550 a.u.
The fluorescence intensity of `GAAATATGTTTGTATGTTGTGATCTAGCACTTCTAG` is reported as 572 a.u.
For `GAAGACAGCTCAGGTCCAGTCACGTTAAAGTGGTAG`, the fluorescence intensity was 902 a.u.
`GAATCTGGACCTGCTAACGTGTTTCATCTTCTTTAG` gave a fluorescence intensity of 519 a.u.
With `GAACAGAATAATGCACACGTATAAAGTACCAATTAG` the fluorescence intensity was 521 a.u.
`GAAACAGAGAGGTAGCAGGTGATTTACGTAGTTTAG` has a fluorescence intensity of 839 a.u.

Sample 2 — method: protein binding microarray; form: double-stranded DNA, one strand shown; matrix: in vitro; concentration: not given; relative to: not given; reading: higher = stronger binding
Target: Histone acetyltransferase KAT6A, winged helix 1, GST fusion (KAT6A, Homo sapiens, UniProt Q92794, residues 1-85)
Setting: 8-mer, flanks averaged, mean of 2 arrays, mostly near background
Construct (chain): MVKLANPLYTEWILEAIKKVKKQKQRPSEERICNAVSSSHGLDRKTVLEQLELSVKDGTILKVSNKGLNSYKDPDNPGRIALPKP
The E-score of `GTGTATTA` is reported as -0.0841.
For `AGAACAAC`, the E-score was -0.108.
`AAAGGACC` gave an E-score of 0.0764.
For `GCACGAAC`, the E-score was 0.0875.
For `ATCCCCCC`, the E-score was -0.222.
For `ATCTGGCC`, the E-score was 0.00369.
`TCAGCGCA` has an E-score of 0.145.
With `AGCTCCAG` the E-score was -0.197.
`AGAAAGCG` gave an E-score of 0.227.
The E-score of `AATTCTCT` is reported as -0.102.
For `ATCTGCGC`, the E-score was 0.175.
For `TATATTCA`, the E-score was -0.0553.
`CCGGCCCA` has an E-score of 0.124.
`ATCTCGAC` gave an E-score of -0.146.
The E-score of `TTCATAAA` is reported as -0.0927.
The E-score of `CAAGCTCA` is reported as -0.28.
`CGATAAGA` has an E-score of -0.0839.
For `GTAGCCCA`, the E-score was -0.176.

Sample 3 — method: protein-binding microarray; form: double-stranded DNA, one strand shown; matrix: in vitro; concentration: 940 nM top; setting: 60-bp whole probe; together with: salmon DNA 0.4 mg/ml; relative to: random background probes; reading: higher = stronger binding; all sequences stand within: GCCTAGCAC … GTCTTGATTCGCTTGACGCTGCTG
Target: Interferon regulatory factor 5, full length, phosphomimetic (IRF5, Homo sapiens, UniProt Q13568-2, residues 1-514, S451D/S453D/S456D/S462D)
`TCAGGACTGGGGTATCGGTTAGTGCTA`: “fitted relative affinity” 2.84 z-score.
`TTTTTTTTTTTTTGGAATGTGTGCTAG` — result for “fitted relative affinity”: 0.753 z-score.
`TTGGATATCAGTCTCGATTAGTGCTAG` — result for “fitted relative affinity”: 3.28 z-score.
`CTAGGACTGGGGACTGGGTTAGTGCTA`: “fitted relative affinity” -0.367 z-score.
`TTAGGATTGGGGACTGGGTTAGTGCTA` — result for “fitted relative affinity”: 0.00691 z-score.
`TCATTTCTGGTTCCCATACTGTGCTAG` — result for “fitted relative affinity”: 1.01 z-score.
`CTTTAACTCATTCTCTGTTTGTGCTAG`: “fitted relative affinity” 1.94 z-score.
`CCTCCTCTAACTTTCCAATTGTGCTAG` — result for “fitted relative affinity”: 1.34 z-score.
Under “fitted relative affinity”, `TTAGGTATCGTGACTGGGTTAGTGCTA` is recorded as 1.47 z-score.
`GGGCCTTGCATGTTTTTGACAGTGCTA` — result for “fitted relative affinity”: -0.248 z-score.
For `TTAGATTTCGGGACTGGCTTAGTGCTA`, “fitted relative affinity” read 0.332 z-score.
For `TTAGGTTTCCGACTGCTTTAGTGCTAG`, “fitted relative affinity” read 0.78 z-score.
Under “fitted relative affinity”, `TTAGATTTCAGAGTGGATTAGTGCTAG` is recorded as -0.0869 z-score.
`TCAGTTTCGTATCTTCATACTGTGCTA` — result for “fitted relative affinity”: 8.94 z-score.
`TTAGATATCGCGTTTCGATTAGTGCTA` — result for “fitted relative affinity”: 1.7 z-score.
`TCATTTATGGTATTTTTACTGTGCTAG`: “fitted relative affinity” 0.192 z-score.
`TTAGGTATCCTTTTCCTGTAGTGCTAG`: “fitted relative affinity” 0.778 z-score.
Under “fitted relative affinity”, `TTACAACTGGGGTATCGATTAGTGCTA` is recorded as 3.72 z-score.
For `TTAGGTATCGACTTTCAGTTAGTGCTA`, “fitted relative affinity” read 5 z-score.

Sample 4 — method: RNA Bind-n-Seq; form: RNA; matrix: in vitro; concentration: 365 nM; relative to: no-protein control; reading: higher = stronger binding
Target: RNA binding protein fox-1 homolog 2, RRM domain, GST-SBP tag (RBFOX2, Homo sapiens, UniProt O43251-10, residues 100-194)
Setting: natural RNA segment, single round, ends assumed
All sequences stand within: GGGAGUUCUACAGUCCGACGAUC … UGGAAUUCUCGGGUGCCAA
Construct (chain): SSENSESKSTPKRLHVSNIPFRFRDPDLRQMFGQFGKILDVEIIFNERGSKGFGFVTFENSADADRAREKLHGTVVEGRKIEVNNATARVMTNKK
For `ACUACGUCCCUCCAAGUGAAGACAGACUGUUUUAGACAGACUUUUUAAAAUGGUGCCCUACCAUUGACACAUGCAGAAAUUGGUGCGUUUUGUUUUUUUUUUUCCUAUGC`, “RBNS enrichment (R)” read 0.996.
`CGCUUACUAGAUGUGAGGAGAGUCUGAAUAUUUUCAGUGAUCUUGGCUGUUUCAAAAAAAUCUAUUGACUUUUCAAUAAAUCAGCUGCAAUCCAUUUAUUUCAUUUACAA`: “RBNS enrichment (R)” 0.324.
For `CCCCUCAUUUCCCAUGGAUGGUGGGACCCCAUUAUUCUCUCAUCUCGGCAUUCAGGGAACAGUUUCCUUAGCGGCCCCUGGUCACAUGUCAUCGGGCUGGGCAGGAAGCG`, “RBNS enrichment (R)” read 0.465.
For `UUGGGGACAAGGCAGGUGUAGGGCAGGUCAGGCCGUUGAACAUCUUCCACUCAAAUCUGCUCAGGUUUGUUAUGCAGCGAUUGUGGCUGUCCGCUGUAUCUCCUCUGUGG`, “RBNS enrichment (R)” read 0.933.
Under “RBNS enrichment (R)”, `UGUUCUUCUCCACCUCCUCAUGGGAUAGGAACUGAAAGAGAACUCAAGGGUUGUCACUUUCCUAGAGGGUGUGAGCGUUCUGCCAGCCACAACCAUGUCUCAGACUCAAG` is recorded as 0.357.
Under “RBNS enrichment (R)”, `UCCUUGUGUAGAAAUGAUUCCCAGUCUAGUUACCAACAGCUAGUCUAGGAGUAAUUGAAUGGCCCUAUGGCACAGUUCCACCCACAGAGUAGUGAAUCUCUCAGCCAAGG` is recorded as 0.526.
Under “RBNS enrichment (R)”, `GAUUGUCCUGGCCGCGACCUGAGACCUCCAUGAGUGGAGGGAAGAGUGAUCUAUGUCUCUUCCCCCCAGCAGCUGGGACCAGUCCUAGCCCCGUCCCCAACCCCUUUCCC` is recorded as 0.988.
Under “RBNS enrichment (R)”, `UUUUACUUAAUUCAUAGCCUUCCUUGGUUUCAUAUUUGUUUGCAUUUAAUUCAUGUUUGAGUCUCUUAACUGAUGGAUGCCCACUUGCCUUAAAGCAGCAUACUUAUUUU` is recorded as 0.655.

Some of these lines once more (sample 1):
For `GAATCCCCCCTCGGGCACATGGAAATTCACTAATAG`, the fluorescence intensity was 547 a.u.
The fluorescence intensity of `CTAAGGATTCCCCGTGACGAAAACAGCCTTCAGTTC` is reported as 1390 a.u.
With `GAAGAATACTAGTATCACGAATACTAGTCAGTATAG` the fluorescence intensity was 520 a.u.
With `TGTACGAAGCTATATCACGATTGTATAGTAGTTAGG` the fluorescence intensity was 528 a.u.
